{"data": "Assay results gathered from unrelated publications", "note": "Protocols differ between the studies behind these lines. Values joined by “and” are separate records of one study, mostly repeats; a detail may differ. ± marks the error that the study gave."}
{"Compound": "Cc1cc(NC2CCN(C)CC2)ccc1-c1cc2c(N3CCC[C@H](C(=O)N[C@H](C)c4ccccc4)C3)ncnc2[nH]1", "target or system": "NCI-H2228", "assay": "cell growth or viability, MTT", "setting": "1 µg/mL, 72 h", "endpoint": "inhibition", "value": "85.5%"}
{"Compound": "O=C(C[Se]C(=O)c1cccnc1Nc1cccc(C(F)(F)F)c1)Nc1cccc(C(F)(F)F)c1", "target or system": "NCI60 renal subpanel", "assay": "cell growth, inhibitor", "setting": "five-dose", "endpoint": "GI50", "value": "1920 nM"}
{"Compound": "CCN(CC)CC(=O)Nc1cccc(-n2cc(-c3ccc4ccc(-c5cn(-c6cccc(NC(=O)CN(CC)CC)c6)nn5)cc4c3)nn2)c1", "target or system": "RCC4", "assay": "PCR angiogenesis array, refers to: EFNA1", "setting": "5 x IC50, 2 h, normoxia", "how to read": "reference: untreated", "endpoint": "fold regulation", "value": 1.13}
{"Compound": "C=CC(=O)Nc1cccc(Cn2ncc3cnc(Nc4cnn(CCOC)c4)nc32)c1", "target or system": "human ABL1(F317I)-nonphosphorylated", "assay": "KINOMEscan", "setting": "100 nM", "how to read": "reference: control", "endpoint": "binding", "value": "77%"}
{"Compound": "COC1CN([C@H]2CC[C@H]([C@@]3(C)Oc4c(Cl)cc(C(=O)NCc5c(SC)cc(C)[nH]c5=O)c(C)c4O3)CC2)C1", "assay": "RNA-seq, refers to: ZNF704", "system": "human, whole blood", "setting": "dose not given, 24 h", "how to read": "reference: pretreatment baseline", "endpoint": "log2 fold change", "value": 2.96}
{"Compound": "CCCC[C@H](NC(=O)CCCCCCCNC(=O)CN1CCN(CC(=O)O)CCN(CC(=O)O)CC1)C(=O)N[C@H]1CC(=O)NCCCC[C@@H](C(N)=O)NC(=O)[C@H](Cc2c[nH]c3ccccc23)NC(=O)[C@H](CCCNC(=N)N)NC(=O)[C@@H](Cc2ccccc2)NC(=O)[C@H](Cc2c[nH]cn2)NC1=O [technetium-99m labelled]", "system": "C57 mouse, stomach", "setting": "intravenous, 0.037 MBq, 0.5 h", "endpoint": "tissue uptake", "value": "3.52 ± 2.78 %ID/g"}
{"Compound": "COc1ccc2c(C)nc(Nc3nc(O)cc(-c4ccccc4)n3)nc2c1", "target or system": "LDR", "assay": "silenced CMV-GFP reporter derepression, qHTS", "endpoint": "efficacy", "value": "76%"}
{"Compound": "Cc1ncsc1-c1ccc(C(C)NC(=O)C2CC(O)CN2C(=O)C(NC(=O)CCCCCCCCCCN2CCCC(Nc3ncc(Cl)c(Nc4ccccc4S(=O)(=O)C(C)C)n3)C2)C(C)(C)C)cc1 (stereo not shown)", "target or system": "22Rv1", "assay": "RNA-seq, refers to: VANGL1 mRNA", "setting": "concentration not given", "how to read": "reference: DMSO", "endpoint": "log2 fold change", "value": -1.54}
{"Compound": "Cc1c(Cc2ccc(F)c(OC(C)C(=O)O)c2)c2ccc(C(=O)NC(C)c3ccc(C(C)(C)C)cc3)cc2n1CC1CCC1 (stereo not shown)", "target or system": "PPARG (Homo sapiens, UniProt P37231)", "assay": "ligand displacement, TR-FRET", "endpoint": "IC50", "value": "0.96 nM"}
{"Compound": "CC(C)Cc1ccc(C(C)C(=O)[Se]CC(=O)Nc2cccc(C(F)(F)F)c2)cc1 (stereo not shown)", "target or system": "NCI60 renal subpanel", "assay": "cell growth", "setting": "10 µM, 48 h, one-dose", "endpoint": "mean growth percent", "value": "-86.9%"}
{"Compound": "CN1CCCNC(=O)c2cccc(c2)C(=O)NCCCN(C)CCCNc2cccc3c2C(=O)c2cccc(c2C3=O)NCCC1", "target or system": "SAS", "assay": "RNA-Seq, refers to: PLPBP mRNA", "setting": "1 µM, 6 h", "how to read": "reference: untreated cells", "endpoint": "log2 fold change", "value": 0.811}
{"Compound": "Cc1c(Cc2cccc(C(C)(C)C(=O)O)c2)c2ccc(C(=O)N[C@@H](C)c3ccc(C(C)(C)C)cc3)cc2n1C", "target or system": "Peroxisome proliferator-activated receptor gamma, ligand-binding domain (PPARG, Homo sapiens, UniProt P37231)", "assay": "reporter gene, luciferase reporter", "system": "HEK293T, Gal4-PPARγ LBD", "endpoint": "IC50", "value": "6720 nM"}
{"Compound": "COc1ccc(NC(=O)C2CCCN(c3ncnc4[nH]c(-c5ccc(NC6CCN(C)CC6)cc5C)cc34)C2)cc1 (stereo not shown)", "target or system": "NCI-H2228", "assay": "cell growth or viability, MTT", "setting": "1 µg/mL, 72 h", "endpoint": "inhibition", "value": "73.3%"}
{"Compound": "CCCC(=O)Oc1c(C)c(OC)c2c(/C=C/c3ccccc3)c(CC)c(=O)oc2c1C", "target or system": "KKU-M213", "assay": "SRB", "how to read": "reference: normal over KKU-M213 IC50", "endpoint": "selectivity index", "value": "> 1.69"}
{"Compound": "Cn1cc(-c2cc3c(N4CCC[C@H](C(=O)NCc5ccc(OC(F)(F)F)cc5)C4)ncnc3[nH]2)cn1", "target or system": "NCI-H2228", "assay": "cell growth or viability, MTT", "setting": "0.04 µg/mL, 72 h", "endpoint": "inhibition", "value": "56.1%"}
{"Compound": "COC1=C2CC(C)CC(OC)C(O)C(C)C=C(C)C(OC(N)=O)C(OC)C=CC=C(C)C(=O)NC(=CC1=O)C2=O (stereo not shown)", "target or system": "Rh30", "assay": "ChIP-seq, refers to: H3K36me3 peak", "setting": "concentration not given, KLF2 TTS chr19:16435200-16441599", "how to read": "reference: untreated control", "endpoint": "log fold change", "value": -1.15}
{"Compound": "COc1cc(O)ccc1-c1c[nH]c2ncc(-c3cncc(C(=O)N(C)C)c3)cc12", "target or system": "Ba/F3 BCR-ABL T315I", "assay": "cell proliferation", "setting": "72 h", "endpoint": "GI50", "value": "253 ± 51 nM"}
{"Compound": "Cn1ncc2cc(-c3cncc(Cl)c3N3CCC4(CCNC4=O)CC3)ccc21", "target or system": "LS174T", "assay": "gene expression, microarray, refers to: PDE4D mRNA", "setting": "concentration not given, 4 h", "how to read": "reference: untreated cells", "endpoint": "log2 fold change", "value": 1.71}
{"Compound": "CNS(=O)(=O)Nc1nccc(Cc2c(C)c3ccc(Oc4ncccc4F)cc3oc2=O)c1F", "target or system": "NCI-H2286", "assay": "cell viability", "setting": "7 days", "endpoint": "IC50", "value": "> 1000 nM"}
{"Compound": "Cc1noc(C)c1-c1cc2c(N3CCC[C@H](C(=O)NCc4ccc(OC(F)(F)F)cc4)C3)ncnc2[nH]1", "target or system": "NCI-H2228", "assay": "cell growth or viability, MTT", "setting": "0.008 µg/mL, 72 h", "endpoint": "inhibition", "value": "17.8%"}
{"Compound": "COc1ccccc1-c1ccncc1C(=O)Nc1nnc(OCc2ccc(Cl)cc2)s1", "target or system": "MDA-MB-436 BRCA1-mutant", "setting": "6 µM, single replicate", "how to read": "reference: untreated", "endpoint": "colony survival", "value": "31% and 51.1% and 48.1%"}
{"Compound": "CC(C)c1ccc(N(C)c2ccc3c(c2)OCC[C@H]3CNc2cnccc2C(=O)O)cc1", "target or system": "NCI-H2228", "assay": "cell viability, CellTiter-Glo", "setting": "7 days", "endpoint": "IC50", "value": "179 nM"}
{"note": "Some of these lines once more:"}
{"Compound": "Cc1cc(NC2CCN(C)CC2)ccc1-c1cc2c(N3CCC[C@H](C(=O)N[C@H](C)c4ccccc4)C3)ncnc2[nH]1", "target or system": "NCI-H2228", "assay": "cell growth or viability, MTT", "setting": "1 µg/mL, 72 h", "endpoint": "inhibition", "value": "85.5%"}
{"Compound": "O=C(C[Se]C(=O)c1cccnc1Nc1cccc(C(F)(F)F)c1)Nc1cccc(C(F)(F)F)c1", "target or system": "NCI60 renal subpanel", "assay": "cell growth, inhibitor", "setting": "five-dose", "endpoint": "GI50", "value": "1920 nM"}
{"Compound": "CCN(CC)CC(=O)Nc1cccc(-n2cc(-c3ccc4ccc(-c5cn(-c6cccc(NC(=O)CN(CC)CC)c6)nn5)cc4c3)nn2)c1", "target or system": "RCC4", "assay": "PCR angiogenesis array, refers to: EFNA1", "setting": "5 x IC50, 2 h, normoxia", "how to read": "reference: untreated", "endpoint": "fold regulation", "value": 1.13}
